Measurements collected from several papers.
Compare with care: the assays were run in different laboratories. Several values in a cell are separate wells, animals, samples, runs or records. ± gives the spread as reported.
GUK1: GUK1 (Homo sapiens, UniProt Q16774)
uncharacterized protein: uncharacterized protein (Spodoptera exigua, UniProt F1CEY0)
ALB: Albumin (ALB, Homo sapiens, UniProt P02768)

COc1cc(O)c2c(c1)oc(=O)c1c3cc(O)c(O)cc3oc21
random coil content (Alpha-glucosidase MAL12 (MAL12, Saccharomyces cerevisiae S288c, UniProt P53341); circular dichroism; molar ratio 1:2): 41.6%

Nc1ncnc2c1ncn2[C@@H]1O[C@H](COP(=O)(O)CP(=O)(O)OP(=O)(O)O)[C@@H](O)[C@H]1O
specific binding (P2X purinoceptor 1 (P2RX1, Homo sapiens, UniProt P51575, K136A); saturation binding; HEK293; 1 nM): 106 CCPM and 83.5 CCPM

CC(=O)C1=C(O)C(=O)N(c2ccc(Br)cc2F)C1C1CCCCC1 (stereo not shown)
Hill slope (C-C chemokine receptor type 1 (CCR1, Homo sapiens, UniProt P32246); inverse agonist; U2OS; no agonist): -0.4 ± 0.06

c1ccc(Nc2nccc(-c3ccco3)n2)cc1
displacement (Adenosine receptor A2a (ADORA2A, Homo sapiens, UniProt P29274); binding, radioligand competition; 30 µM, added: [3H]ZM241385): 37 ± 4%

Clc1ccccc1C(c1ccccc1)(c1ccccc1)n1ccnc1
current density (TRPM3 (Homo sapiens, UniProt Q9HCF6); whole-cell patch clamp; HEK-293T expressing hTRPM3-YFP; 10 µM, at +80 mV, added: pregnenolone sulfate 40 µM, DTT pretreatment): 103 ± 19.9 pA/pF

COc1cc(NC(=O)c2cnn(-c3ccc([N+](=O)[O-])cc3)c2C(F)(F)F)cc(OC)c1OC
selectivity ratio (Prostaglandin G/H synthase 2 (PTGS2, Homo sapiens, UniProt P35354); enzyme activity, inhibitor; baseline: COX-1 IC50 over COX-2 IC50): 0.93

O=S(=O)(O)O
reaction velocity (GUK1; enzyme activity, NADH-coupled; 1 mM, added: ATP 2000 µM): 0.133 µM/s and 0.134 µM/s and 0.131 µM/s

Nc1ncnc2c1ncn2[C@@H]1O[C@H](C[C@@H](N)CC[C@H](N)C(=O)O)[C@@H](O)[C@H]1O
ΔG of binding (O-methyltransferase (Sorghum bicolor, UniProt A0A1B6PFV1); concentration not given, added: RSV+): -8.59 kcal/mol

[O-][S+]1CCCCS1 (stereo not shown)
SOD1 monomer fraction (Superoxide dismutase [Cu-Zn] (SOD1, Homo sapiens, UniProt P00441, G94A); LC-MS; brain homogenate; 50 µM, 1 h, 37 °C): 85.3%

CCC1(O)CCCN(C(=O)c2ccc(-c3ccc(F)c(NC(=O)CCl)c3)cc2)C1 (stereo not shown)
protein adduct (DNA dC->dU-editing enzyme APOBEC-3A (Homo sapiens, UniProt P31941); covalent modifier, intact protein mass spectrometry, measured: adduct +26691 Da; 125 µM, 1 h, 5-fold molar excess): 0%

CC1(C)[C@@H]2CC[C@@]1(C)[C@@H](O)C2
relative fluorescence (uncharacterized protein; binding, competitor, fluorescence displacement; 20 µM, pH 7.4, added: 1-NPN 20 µM; baseline: 1-NPN alone): 77.8%

C=CC(=O)N1CCC[C@@H](n2nc(-c3ccc(Oc4ccccc4)cc3)c3c(N)ncnc32)C1
remaining activity (Ephrin type-A receptor 2 (EPHA2, Homo sapiens, UniProt P29317); 10 µM): 141%

CC1=C[C@H](O)[C@H]2C[C@@H]1C2(C)C
relative fluorescence (uncharacterized protein; binding, 1-NPN competitive displacement; protein 2.0 µM, added: 1-NPN 20 µM; baseline: 1-NPN without compound, lower = stronger binding): 79.2%

Cc1cc(-c2ccnc3[nH]cc(F)c23)cc(F)c1[C@@]1(O)[C@H](C)CN(C2CCS(=O)(=O)CC2)C[C@@H]1C
probe labelling inhibition (Tyrosine-protein kinase JAK1 (JAK1, Homo sapiens, UniProt P23458); ATP/ADP probe binding, KiNativ; HEK293T lysate; 0.1 µM, Lys1 peptide domain 2): 22.7%

CCCCCCCCCCCCC
relative fluorescence (uncharacterized protein; binding, competitor, fluorescence displacement; 20 µM, pH 7.4, added: 1-NPN 20 µM; baseline: 1-NPN alone): 75.8%

CCC[C@@H]1NC(=O)[C@H](Cc2ccc(-c3ccccc3)cc2)NC(=O)[C@H](CC(C)C)NC(=O)[C@@H]2CCCN2C(=O)[C@@H](NC(=O)[C@H](CCCNC(=N)N)NC(=O)[C@H](CCCNC(=N)N)NC(C)=O)CSSC[C@@H](C(=O)N[C@@H](CCCNC(=N)N)C(=O)N[C@@H](CCCNC(=N)N)C(N)=O)NC(=O)[C@H](C(C)C)NC(=O)[C@@H]2CCCN2C(=O)[C@H](CC(=O)O)NC(=O)[C@H](Cc2ccc(O)cc2)NC(=O)[C@H](CO)NC1=O
lowest bound protein concentration (GTPase KRas, GDP-bound (KRAS, Homo sapiens, UniProt P01116, G12D); affinity selection mass spectrometry; mixture library 1, added: protein titration up to 5 µM; lower is stronger binding): 0.31 to 0.62 µM

C1CCCC1.C1CCCC1.[Cl][W][Cl]
Stern-Volmer quenching constant (ALB; fluorescence quenching; 288 K): 4040 L/mol

CC1CCCN(C(=O)c2cc3ncccn3n2)C1 (stereo not shown)
log fold enrichment (DNA mismatch repair protein Msh6 (Homo sapiens, UniProt P52701); binding, affinity selection mass spectrometry; baseline: other proteins in batch): -0.0792

COc1cc(-c2[o+]c3cc(O)cc(O)c3cc2O[C@@H]2O[C@H](CO)[C@@H](O)[C@H](O)[C@H]2O)ccc1O
bathochromic shift (ALB; binding, visible absorption; 50 µM, pH 7, added: HSA up to 200 µM; baseline: without HSA): 34 nm

O=C(COP(=O)(O)O)[C@@H](O)[C@H](O)[C@H](O)COP(=O)(O)O
thermal stability ratio (Glycine--tRNA ligase (Homo sapiens, UniProt P41250); thermal proteome profiling, measured: GARS; HepG2 cell lysate; concentration not given, 57 over 37 °C, mean; baseline: compound over control): 0.595

C#Cc1c(F)ccc2cc(O)cc(-c3ncc4c(N5CC6CCC(C5)N6)nc(OC[C@@]56CCCN5C[C@H](F)C6)nc4c3F)c12
affinity loss vs wild type (GTPase KRas, GppNHp-bound (KRAS, Homo sapiens, UniProt P01116); SPR; GDP-bound; baseline: mutant KD over wild-type KD): 20 fold

N#Cc1ccn2c(-c3ccncc3)c(-c3ccc(F)cc3)nc2c1
log2 fold change (Carbon catabolite-derepressing protein kinase (SNF1, Candida albicans, UniProt P52497); kinase binding, competitor, MIB/MS competition, measured: SNF1; Candida albicans cell lysate; 100 nM; baseline: DMSO): -0.164

O=C(O)c1ccc(Nc2ncc3c(n2)-c2ccc(Cl)cc2C(c2c(F)cccc2F)=NC3)cc1
remaining activity (MAPKAP-K3(h); kinase activity; 1 µM): 104%

CCCC(CCC)c1nc2c(Nc3ccc(C#CCCCCCCCCN)cc3)nc3ccccc3c2[nH]1
off-target affinity (Kappa-type opioid receptor (OPRK1, Homo sapiens, UniProt P41145); PDSP screening): inactive

Cc1occc(=O)c1[O-].[Cl-].[W+4].c1cc[cH-]c1.c1cc[cH-]c1
Gibbs free energy change (ALB; binding, fluorescence quenching; 310 K): -5.93 kcal/mol

C=CC(=O)N1CCC(COCC(=O)N2CCN(c3nc(-c4cnc(N)nc4C(F)F)nc(N4CCOC[C@@H]4C)n3)CC2)CC1
remaining binding (Cyclin-dependent kinase 5 (CDK5, Homo sapiens, UniProt Q00535); KINOMEscan; 1 µM): 100%

Nc1nc2c(ncn2[C@@H]2O[C@H](COP(=O)(O)O)[C@@H](O)[C@H]2O)c(=O)[nH]1
reaction velocity (GUK1; enzyme activity, NADH-coupled; 62.5 µM, added: NaCl 10 mM): 0.0741 µM/s and 0.0443 µM/s and 0.0684 µM/s

N[C@@H](Cc1ccccc1)C(=O)Nc1ccc2ccccc2c1
kcat (Puromycin-sensitive aminopeptidase (Rattus norvegicus, UniProt F1M9V7); substrate; MW 100 kDa): 43.3 s⁻¹

O=c1nc(SCc2cc(F)cc(C(F)(F)F)c2)nc(SCc2csc3ccc(Cl)cc23)[nH]1
mean decatenated DNA (DNA topoisomerase 2-beta (TOP2B, Homo sapiens, UniProt Q02880); decatenation; 15.6 µM): 4.7%

N[C@H](CNC(=O)c1ccc(-c2cccc(F)c2)s1)C(=O)O
Hill slope (Glutamate receptor ionotropic, NMDA 1, with GluN2D (Grin1, Rattus norvegicus, UniProt P35439); added: glutamate 300 µM): 1.51

NC/C(=C\F)COc1cccc(Cn2c(=S)[nH]c(=O)c3[nH]cnc32)c1
inhibition (human nicotinic acetylcholine receptor; radioligand binding; 10 µM): < 50%

For quick reference, copied from above:
C1CCCC1.C1CCCC1.[Cl][W][Cl]
Stern-Volmer quenching constant (ALB; fluorescence quenching; 288 K): 4040 L/mol

O=c1nc(SCc2cc(F)cc(C(F)(F)F)c2)nc(SCc2csc3ccc(Cl)cc23)[nH]1
mean decatenated DNA (DNA topoisomerase 2-beta (TOP2B, Homo sapiens, UniProt Q02880); decatenation; 15.6 µM): 4.7%

COc1cc(O)c2c(c1)oc(=O)c1c3cc(O)c(O)cc3oc21
random coil content (Alpha-glucosidase MAL12 (MAL12, Saccharomyces cerevisiae S288c, UniProt P53341); circular dichroism; molar ratio 1:2): 41.6%

COc1cc(-c2[o+]c3cc(O)cc(O)c3cc2O[C@@H]2O[C@H](CO)[C@@H](O)[C@H](O)[C@H]2O)ccc1O
bathochromic shift (ALB; binding, visible absorption; 50 µM, pH 7, added: HSA up to 200 µM; baseline: without HSA): 34 nm
